{"data": "Measurements pooled from the literature", "note": "Each numbered part is a random draw from the data of one study; scales do not carry over between parts. Changes are numbered by the printed parent chain."}
{"data": "Set 1", "target": "HLA class I histocompatibility antigen, A alpha chain, allele A*25:01 (Homo sapiens, UniProt P04439)", "observed": "peptide-MHC binding", "form": "peptide", "tested at": "concentration not given"}
{"Sequence": "TELPLAYER", "binding": "inactive"}
{"Sequence": "ELRQLAQSL", "binding": "inactive"}
{"Sequence": "LEEDIQHFL", "binding": "inactive"}
{"Sequence": "TVFRNQNRV", "binding": "inactive"}
{"data": "Set 2", "target": "CCNB1, cyclin fold, Cln2 fusion (human)", "method": "yeast growth competition, sequencing", "medium": "yeast", "notes": "strong parent motif", "relative to": "not given", "reading": "higher = stronger binding", "starting sequence": "viral docking peptide; TSVRRALFTGGSD; partner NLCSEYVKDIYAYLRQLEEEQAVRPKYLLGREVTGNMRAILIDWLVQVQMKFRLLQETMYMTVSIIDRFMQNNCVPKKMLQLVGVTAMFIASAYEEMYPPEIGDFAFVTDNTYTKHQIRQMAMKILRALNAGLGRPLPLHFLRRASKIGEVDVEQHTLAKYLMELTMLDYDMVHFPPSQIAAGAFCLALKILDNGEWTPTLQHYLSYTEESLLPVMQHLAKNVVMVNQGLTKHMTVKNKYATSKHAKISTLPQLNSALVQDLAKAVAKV"}
{"Variant": "TSVGRALFTGGSD [R4G]", "normalised enrichment score": -0.43}
{"Variant": "TPVRRALFTGGSD [S2P]", "normalised enrichment score": 1.83}
{"Variant": "TSVRRSLFTGGSD [A6S]", "normalised enrichment score": 1.08}
{"Variant": "TSVRRALFTGGSA [D13A]", "normalised enrichment score": 1.88}
{"Variant": "TSVRRALFVGGSD [T9V]", "normalised enrichment score": 2.5}
{"Variant": "TSVRRALFTGRSD [G11R]", "normalised enrichment score": 0.906}
{"Variant": "TSVRRTLFTGGSD [A6T]", "normalised enrichment score": 0.609}
{"Variant": "TSVRRALFTGTSD [G11T]", "normalised enrichment score": 2.45}
{"Variant": "TSVRRALGTGGSD [F8G]", "normalised enrichment score": 0.148}
{"Variant": "TSVRRALKTGGSD [F8K]", "normalised enrichment score": 0.00261}
{"Variant": "TSVRFALFTGGSD [R5F]", "normalised enrichment score": -0.0867}
{"Variant": "TSVRRALNTGGSD [F8N]", "normalised enrichment score": 0.24}
{"Variant": "TSVRRALFRGGSD [T9R]", "normalised enrichment score": 1.12}
{"Variant": "TSVRRALFTGGRD [S12R]", "normalised enrichment score": 1.45}
{"Variant": "TIVRRALFTGGSD [S2I]", "normalised enrichment score": 1.06}
{"Variant": "TSVPRALFTGGSD [R4P]", "normalised enrichment score": 0.373}
{"Variant": "TSVRKALLTGGSD [R5K F8L]", "normalised enrichment score": 0.542}
{"Variant": "TSVRRALLTGGSD [F8L]", "normalised enrichment score": 0.223}
{"Variant": "TSVRRALFTGASD [G11A]", "normalised enrichment score": 2.13}
{"Variant": "TSVRRALATGGSD [F8A]", "normalised enrichment score": 0.0961}
{"Variant": "TSVRRILFTGGSD [A6I]", "normalised enrichment score": 1.28}
{"Variant": "TSVRLALFTGGSD [R5L]", "normalised enrichment score": 0.24}
{"Variant": "TSVRRWLFTGGSD [A6W]", "normalised enrichment score": -0.102}
{"Variant": "TSTRRALFTGGSD [V3T]", "normalised enrichment score": 0.553}
{"Variant": "TSVRRALFTYGSD [G10Y]", "normalised enrichment score": 1.53}
{"data": "Set 3", "target": "Centromere-binding protein 1, full length, His-tagged (CBF1, Saccharomyces cerevisiae, UniProt P17106, residues 1-351)", "method": "competition protein-binding microarray", "form": "double-stranded DNA, one strand shown", "medium": "in vitro", "tested at": "2 µM", "notes": "whole 60-bp probe, lowest competitor level", "with": "Pho4 competitor, 0.05 µM", "reading": "higher = stronger binding", "chain of UniProt P17106 (whole entry, looked up)": "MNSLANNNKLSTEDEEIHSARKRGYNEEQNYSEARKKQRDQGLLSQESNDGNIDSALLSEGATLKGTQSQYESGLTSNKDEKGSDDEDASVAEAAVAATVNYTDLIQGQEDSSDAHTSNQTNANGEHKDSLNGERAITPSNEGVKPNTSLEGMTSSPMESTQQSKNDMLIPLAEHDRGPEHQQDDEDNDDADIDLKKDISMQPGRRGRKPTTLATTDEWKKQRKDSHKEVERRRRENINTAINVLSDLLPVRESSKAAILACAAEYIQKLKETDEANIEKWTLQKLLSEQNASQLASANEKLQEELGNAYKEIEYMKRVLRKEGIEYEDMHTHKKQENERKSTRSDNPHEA"}
{"Strand": "CTTTTCACTCTTCATCACATGATATTACCTTTACATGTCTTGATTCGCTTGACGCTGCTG", "fluorescence intensity [a.u.]": 1110}
{"Strand": "GCCTAAGGGCCTGCCATCGTGCTTTCTCAAACTATTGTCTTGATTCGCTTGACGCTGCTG", "fluorescence intensity [a.u.]": 63.3}
{"Strand": "TGCATCCTCTCCGGCCACGTGGGTAGAGGTTTTACCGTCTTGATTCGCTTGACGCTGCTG", "fluorescence intensity [a.u.]": 1390}
{"Strand": "GAACCGATGACGAGGCACATGGGGATAGAACCTCCGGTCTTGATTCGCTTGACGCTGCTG", "fluorescence intensity [a.u.]": 64.9}
{"Strand": "CTTCTGTAAATTTGGCGAGTGGGTGGACGCGCCCCGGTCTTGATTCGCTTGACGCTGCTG", "fluorescence intensity [a.u.]": 85.9}
{"Strand": "TCACAAGATGATTGTCATGAAATTCTCTGTCTCTCCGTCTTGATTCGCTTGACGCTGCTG", "fluorescence intensity [a.u.]": 90.6}
{"Strand": "CATACCCAACCTTGGGTTGTGGGTGAAGATATTTGTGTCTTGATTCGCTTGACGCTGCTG", "fluorescence intensity [a.u.]": 65.9}
{"Strand": "CGGGGTTAAGTTTGACCGGTGGGTGGCTTGCAGCAGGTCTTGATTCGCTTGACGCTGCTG", "fluorescence intensity [a.u.]": 63}
{"data": "Set 4", "target": "Sal-like protein 4, full length isoform B (SALL4, Homo sapiens, UniProt Q9UJQ4-2, residues 1-616)", "method": "universal PBM", "form": "double-stranded DNA, one strand shown", "medium": "in vitro", "tested at": "not given", "notes": "8-mer, flanks averaged, mean of replicates", "reading": "higher = stronger binding"}
{"Strand": "GAGTGTAC", "E-score": 0.012}
{"Strand": "CGCCACTA", "E-score": -0.062}
{"Strand": "AGCCGAAC", "E-score": -0.147}
{"Strand": "GTAGCGGA", "E-score": -0.161}
{"Strand": "GTTCCCCA", "E-score": -0.155}
{"Strand": "ATGGCAAA", "E-score": 0.0759}
{"Strand": "AGAAAGAG", "E-score": -0.0741}
{"Strand": "ACTCTGCG", "E-score": -0.148}
{"data": "Set 5", "target": "RNA binding protein fox-1 homolog 2, RRM domain, GST-SBP tag (RBFOX2, Homo sapiens, UniProt O43251-10, residues 100-194)", "method": "RNA Bind-n-Seq", "form": "RNA", "medium": "in vitro", "tested at": "365 nM", "notes": "natural RNA segment, single round, ends assumed", "relative to": "no-protein control", "reading": "higher = stronger binding", "Construct (chain)": "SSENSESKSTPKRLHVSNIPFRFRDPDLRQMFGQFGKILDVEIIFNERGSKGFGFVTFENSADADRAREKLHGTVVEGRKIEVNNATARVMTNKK"}
{"Strand": "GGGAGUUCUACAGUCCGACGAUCCAGUGAAAUAAAUACAAUACCAGAGUACAUUAUGGGUUUUAUUGCUUUCUUUUAUGGUAGACCUGUUAAUGGGGAAAAAAUACAUCAAAUCAAAUAGAAUCUUAUAUCUGUGGAAUUCUCGGGUGCCAA", "RBNS enrichment (R)": 0.356}
{"Strand": "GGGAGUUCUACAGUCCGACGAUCCACCUGAGGCCAGCUCUGGUCAGUCUCUGAUGGUCCAUUGGGCUGGCUCAGCACAUUGACAUCACUAACUAGGGUUGGGAUAGCUUCCUACCCAGAUGACCAAAAAGCCAUGGAAUUCUCGGGUGCCAA", "RBNS enrichment (R)": 0.256}
{"Strand": "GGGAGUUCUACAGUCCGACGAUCGUGAGGUGGGUGGAGACUCCUCGGAAGCCCCUGCUUCCAGAAAGCCUGGGAAGAACUGCCCUUCUGCAAAGGGGGGACUGCAUGGUUGCAUUUUCAUCACUGAAAGUCAGUGGAAUUCUCGGGUGCCAA", "RBNS enrichment (R)": 10.7}
{"Strand": "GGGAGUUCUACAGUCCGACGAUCUGCCCCUGUUGGCCACAGCUUAUGGGCCCUGCCCUCUUUCUUCACACCAGCCCCUUGGCCAGCCUGCCGCAGGCAUCUCAGGGCCAUGCAGAUCCCAGGCUGUGGAUUACUGGAAUUCUCGGGUGCCAA", "RBNS enrichment (R)": 0.546}
{"Strand": "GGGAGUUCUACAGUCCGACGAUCGGGAGACGCAGAAAUUGUGGUAAAAUUCCUUAAUGUUUAAGGGAAAGUAACUUUAAGAGAUUUUUGGAAAAGCUUUAUAUACAUUCUUUUCAAAUUUCAGUACAAAUGAAUGGAAUUCUCGGGUGCCAA", "RBNS enrichment (R)": 0.603}
{"Strand": "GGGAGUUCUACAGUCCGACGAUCAAGAAGUUUAUUCUCAUUUGGGAGAUCUGGUGAUCUCCCAAGCUAUCUAAAGUUUGUUAGAUAGCUGCAUGUGGCUUUUUUAAAAAAGCAACAGAAACCUAUCCUCACUGUGGAAUUCUCGGGUGCCAA", "RBNS enrichment (R)": 5.19}
{"Strand": "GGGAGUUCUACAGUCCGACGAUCCUGUCUCCAAAAGAAAGAAAUCCCAGCGUAGAUCCAAACUGAGACACUGAGGCUUCGUCCUUAUAGUAGUCAGGAGCAGGCGAUUGAAGUAAUUCUGUCCUGCGGGGUUCUGGAAUUCUCGGGUGCCAA", "RBNS enrichment (R)": 0.283}
{"Strand": "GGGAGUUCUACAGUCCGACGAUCUUGAACAGGUGCCUUGGGCAUGAUGUAUAGAUGCAGUCAUAUAUACCUUGCUGGGGUGGGGUGCCACCUCCAGUGGCCAGCUCCAGAUCCAAGGAGCAGCCCCCUGGGGAUGGAAUUCUCGGGUGCCAA", "RBNS enrichment (R)": 0.285}
{"note": "Repeated from above (set 5):"}
{"Strand": "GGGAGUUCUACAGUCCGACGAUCGUGAGGUGGGUGGAGACUCCUCGGAAGCCCCUGCUUCCAGAAAGCCUGGGAAGAACUGCCCUUCUGCAAAGGGGGGACUGCAUGGUUGCAUUUUCAUCACUGAAAGUCAGUGGAAUUCUCGGGUGCCAA", "RBNS enrichment (R)": 10.7}
{"Strand": "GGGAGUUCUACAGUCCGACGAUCUGCCCCUGUUGGCCACAGCUUAUGGGCCCUGCCCUCUUUCUUCACACCAGCCCCUUGGCCAGCCUGCCGCAGGCAUCUCAGGGCCAUGCAGAUCCCAGGCUGUGGAUUACUGGAAUUCUCGGGUGCCAA", "RBNS enrichment (R)": 0.546}
{"Strand": "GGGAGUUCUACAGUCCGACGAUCGGGAGACGCAGAAAUUGUGGUAAAAUUCCUUAAUGUUUAAGGGAAAGUAACUUUAAGAGAUUUUUGGAAAAGCUUUAUAUACAUUCUUUUCAAAUUUCAGUACAAAUGAAUGGAAUUCUCGGGUGCCAA", "RBNS enrichment (R)": 0.603}
